Published values from different studies.
Parts stem from different laboratories: compare values within a part only. Several values in a cell are separate wells, animals, samples, runs or records.
Sequence of UniProt Q92630 (whole entry, looked up): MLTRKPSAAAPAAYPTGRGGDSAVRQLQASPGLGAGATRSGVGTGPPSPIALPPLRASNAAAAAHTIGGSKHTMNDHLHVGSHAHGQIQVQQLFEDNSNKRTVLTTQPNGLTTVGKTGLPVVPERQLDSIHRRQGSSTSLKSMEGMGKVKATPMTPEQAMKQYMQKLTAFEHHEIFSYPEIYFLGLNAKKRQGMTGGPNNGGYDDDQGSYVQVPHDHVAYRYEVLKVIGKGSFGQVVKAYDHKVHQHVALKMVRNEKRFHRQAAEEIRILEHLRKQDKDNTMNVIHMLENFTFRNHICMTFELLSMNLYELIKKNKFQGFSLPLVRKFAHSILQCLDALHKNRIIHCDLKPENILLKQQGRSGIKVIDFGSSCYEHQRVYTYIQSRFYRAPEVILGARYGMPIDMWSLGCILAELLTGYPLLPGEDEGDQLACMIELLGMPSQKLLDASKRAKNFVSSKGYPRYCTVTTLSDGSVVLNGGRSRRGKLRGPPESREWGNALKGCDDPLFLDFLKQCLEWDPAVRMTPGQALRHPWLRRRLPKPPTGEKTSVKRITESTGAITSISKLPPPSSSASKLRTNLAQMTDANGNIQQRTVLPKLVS
Sequence of UniProt Q9NY57 (whole entry, looked up): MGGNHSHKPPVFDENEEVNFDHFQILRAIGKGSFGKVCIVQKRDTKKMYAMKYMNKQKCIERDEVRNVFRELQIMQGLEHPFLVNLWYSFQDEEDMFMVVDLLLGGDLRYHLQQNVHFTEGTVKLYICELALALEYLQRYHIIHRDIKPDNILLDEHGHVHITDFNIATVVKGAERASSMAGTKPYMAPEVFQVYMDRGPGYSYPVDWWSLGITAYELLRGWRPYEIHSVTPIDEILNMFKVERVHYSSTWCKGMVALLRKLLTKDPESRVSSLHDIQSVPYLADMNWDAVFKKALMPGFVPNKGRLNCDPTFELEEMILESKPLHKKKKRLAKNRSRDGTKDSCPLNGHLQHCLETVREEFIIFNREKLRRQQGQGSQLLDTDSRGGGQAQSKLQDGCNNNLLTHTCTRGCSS
Sequence of UniProt Q12851 (whole entry, looked up): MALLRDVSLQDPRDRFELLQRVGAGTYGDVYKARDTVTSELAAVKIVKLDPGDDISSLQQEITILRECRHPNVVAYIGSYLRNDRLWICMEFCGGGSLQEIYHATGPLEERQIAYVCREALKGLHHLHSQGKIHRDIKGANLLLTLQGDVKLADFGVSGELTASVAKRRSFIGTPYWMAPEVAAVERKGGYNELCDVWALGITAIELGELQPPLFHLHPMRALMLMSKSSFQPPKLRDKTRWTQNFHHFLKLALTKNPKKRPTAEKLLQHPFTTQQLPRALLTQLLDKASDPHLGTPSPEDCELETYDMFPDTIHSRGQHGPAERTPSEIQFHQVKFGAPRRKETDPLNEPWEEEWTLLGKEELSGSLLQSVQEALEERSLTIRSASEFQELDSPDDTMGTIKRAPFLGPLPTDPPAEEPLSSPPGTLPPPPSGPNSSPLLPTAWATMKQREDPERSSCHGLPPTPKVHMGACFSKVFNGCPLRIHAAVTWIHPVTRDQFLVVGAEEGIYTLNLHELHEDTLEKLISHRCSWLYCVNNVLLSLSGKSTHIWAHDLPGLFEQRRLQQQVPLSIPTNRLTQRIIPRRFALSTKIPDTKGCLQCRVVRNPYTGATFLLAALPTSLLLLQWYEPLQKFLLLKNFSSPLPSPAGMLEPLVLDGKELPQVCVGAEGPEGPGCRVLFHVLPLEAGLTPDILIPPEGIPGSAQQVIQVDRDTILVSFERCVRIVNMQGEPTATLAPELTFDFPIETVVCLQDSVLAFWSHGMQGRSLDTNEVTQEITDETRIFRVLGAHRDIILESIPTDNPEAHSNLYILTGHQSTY
Sequence of UniProt Q00537 (whole entry, looked up): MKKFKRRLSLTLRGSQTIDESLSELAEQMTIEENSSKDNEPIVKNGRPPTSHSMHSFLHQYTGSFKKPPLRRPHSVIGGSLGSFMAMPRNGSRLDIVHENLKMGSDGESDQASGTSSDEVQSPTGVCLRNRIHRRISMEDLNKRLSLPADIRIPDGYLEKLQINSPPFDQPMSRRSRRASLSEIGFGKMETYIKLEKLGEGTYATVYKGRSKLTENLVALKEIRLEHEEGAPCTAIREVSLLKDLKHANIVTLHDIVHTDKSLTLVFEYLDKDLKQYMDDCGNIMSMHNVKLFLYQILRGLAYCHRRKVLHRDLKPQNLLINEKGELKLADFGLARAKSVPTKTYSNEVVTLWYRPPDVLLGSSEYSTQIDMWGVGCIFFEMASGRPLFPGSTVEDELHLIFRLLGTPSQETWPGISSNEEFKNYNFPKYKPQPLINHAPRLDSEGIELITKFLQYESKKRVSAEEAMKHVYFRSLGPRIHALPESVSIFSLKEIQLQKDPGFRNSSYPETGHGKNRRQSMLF
Sequence of UniProt Q9NYL2 (whole entry, looked up): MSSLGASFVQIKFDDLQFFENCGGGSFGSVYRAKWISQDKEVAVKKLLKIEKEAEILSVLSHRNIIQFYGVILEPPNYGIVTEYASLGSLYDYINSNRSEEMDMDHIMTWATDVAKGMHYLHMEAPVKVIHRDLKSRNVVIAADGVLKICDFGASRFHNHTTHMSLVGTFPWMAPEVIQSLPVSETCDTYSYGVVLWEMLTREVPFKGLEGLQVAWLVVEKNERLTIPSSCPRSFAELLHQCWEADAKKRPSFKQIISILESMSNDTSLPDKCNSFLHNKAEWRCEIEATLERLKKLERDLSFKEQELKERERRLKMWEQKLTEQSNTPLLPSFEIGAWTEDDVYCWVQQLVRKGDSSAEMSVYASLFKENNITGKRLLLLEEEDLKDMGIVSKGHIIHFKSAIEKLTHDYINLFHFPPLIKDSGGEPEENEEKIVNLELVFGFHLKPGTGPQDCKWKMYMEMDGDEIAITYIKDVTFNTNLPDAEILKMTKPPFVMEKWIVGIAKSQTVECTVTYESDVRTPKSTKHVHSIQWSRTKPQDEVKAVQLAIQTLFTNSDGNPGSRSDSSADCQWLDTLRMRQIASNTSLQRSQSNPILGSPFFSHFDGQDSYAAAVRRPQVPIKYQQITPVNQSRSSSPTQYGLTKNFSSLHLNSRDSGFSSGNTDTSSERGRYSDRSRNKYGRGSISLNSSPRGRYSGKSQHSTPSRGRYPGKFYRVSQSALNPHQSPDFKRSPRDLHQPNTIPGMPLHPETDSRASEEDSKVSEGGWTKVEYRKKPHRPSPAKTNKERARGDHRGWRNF
Sequence of UniProt O43293 (whole entry, looked up): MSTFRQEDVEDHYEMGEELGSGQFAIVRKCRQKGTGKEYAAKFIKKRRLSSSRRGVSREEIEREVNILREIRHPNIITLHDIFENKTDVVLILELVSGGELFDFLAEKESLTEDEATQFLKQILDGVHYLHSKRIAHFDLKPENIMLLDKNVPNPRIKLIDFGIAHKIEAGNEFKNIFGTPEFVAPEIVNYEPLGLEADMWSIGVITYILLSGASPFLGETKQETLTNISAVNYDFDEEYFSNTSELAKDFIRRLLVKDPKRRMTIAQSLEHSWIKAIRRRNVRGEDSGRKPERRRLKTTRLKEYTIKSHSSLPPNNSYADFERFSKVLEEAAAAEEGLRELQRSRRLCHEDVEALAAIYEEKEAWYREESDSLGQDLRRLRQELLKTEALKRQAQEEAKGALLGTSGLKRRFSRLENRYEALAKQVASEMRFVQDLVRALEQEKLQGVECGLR
Sequence of UniProt Q9P1W9 (whole entry, looked up): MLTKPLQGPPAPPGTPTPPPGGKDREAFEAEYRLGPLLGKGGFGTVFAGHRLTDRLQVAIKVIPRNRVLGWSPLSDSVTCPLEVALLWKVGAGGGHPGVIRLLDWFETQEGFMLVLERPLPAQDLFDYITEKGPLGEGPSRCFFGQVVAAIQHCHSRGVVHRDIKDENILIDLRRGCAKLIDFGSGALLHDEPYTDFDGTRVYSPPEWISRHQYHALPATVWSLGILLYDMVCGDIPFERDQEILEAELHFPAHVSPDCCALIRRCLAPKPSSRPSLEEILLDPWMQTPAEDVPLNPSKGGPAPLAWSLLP

Sample 1 — effect on: RNA clamping; technique: fluorescence polarization; tested at: concentration not given; added: FAM-labelled poly r(AG)8 RNA; direction: higher = more clamping
Target: Eukaryotic initiation factor 4A-I (EIF4A1, Homo sapiens, UniProt P60842)
Sequence of UniProt P60842 (whole entry, looked up): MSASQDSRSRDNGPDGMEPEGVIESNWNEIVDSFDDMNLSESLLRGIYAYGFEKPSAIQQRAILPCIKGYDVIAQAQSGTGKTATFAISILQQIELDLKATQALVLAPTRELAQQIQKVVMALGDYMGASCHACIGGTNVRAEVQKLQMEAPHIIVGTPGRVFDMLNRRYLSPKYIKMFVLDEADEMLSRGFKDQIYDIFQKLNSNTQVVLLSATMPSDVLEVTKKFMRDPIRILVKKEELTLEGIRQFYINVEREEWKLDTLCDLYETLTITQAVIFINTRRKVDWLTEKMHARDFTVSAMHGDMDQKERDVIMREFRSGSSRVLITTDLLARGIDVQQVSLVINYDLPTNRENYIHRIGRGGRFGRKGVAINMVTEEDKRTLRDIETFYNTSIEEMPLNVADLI
Structure (SMILES) | fluorescence polarization change
COc1ccc([C@]23[C@H](c4ccccc4)C[C@@H](O)[C@@]2(O)c2c(OC)cccc2N3C)cc1 | 2.3 mP
COc1ccc([C@@]23Oc4cc(OC)cc(OC)c4[C@]2(O)C2=C(C(=O)N4CCC[C@H]4O2)[C@H]3c2ccccc2)cc1 | 42.7 mP
COc1ccc([C@@]23Oc4cc(OC)cc(OC)c4[C@@](O)(C2=O)[C@H](C(=O)N(C)OC)[C@H]3c2ccccc2)cc1 | 13 mP
COc1ccc([C@@]23Oc4cc(OC)cc(OC)c4[C@]2(OC)c2nc(-c4ccccc4)n(C)c(=O)c2[C@H]3c2ccccc2)cc1 | -13 mP
COc1ccc([C@@]23Oc4cc(OC)cc(OC)c4[C@]2(NCc2ccccc2)C(=O)C[C@H]3c2ccccc2)cc1 | 12.1 mP
COc1ccc([C@@]23Oc4cc(OC)cc(OC)c4[C@]2(O)c2nc(C)[nH]c(=O)c2[C@H]3c2ccccc2)cc1 | 63.4 mP
COC(=O)[C@@H]1[C@@H](c2ccccc2)[C@]2(c3ccc(OC)cc3)Oc3cc(OC)cc(OC)c3[C@@]23NC(CCl)=N[C@@]13O | 25.7 mP
COc1ccc([C@@]23Oc4cc(OC)cc(OC)c4[C@@]24NC(C)=N[C@@]4(O)[C@H](C(C)=O)[C@H]3c2ccccc2)cc1 | 61.4 mP
C#CCNC(=O)CCCn1c(-c2ccccc2)nc2c(c1=O)[C@@H](c1ccccc1)[C@]1(c3ccc(OC)cc3)Oc3cc(OC)cc(OC)c3[C@]21O | 26 mP
COc1ccc([C@@]23Oc4cc(OC)cc(OC)c4[C@]2(O)c2nc(N4CCOCC4)[nH]c(=O)c2[C@H]3c2ccccc2)cc1 | 54.1 mP and 45 mP

Sample 2 — effect on: enzyme activity; mode: inhibitor; tested at: 0.5 µM; reference: control
Target: Casein kinase I isoform gamma-1 (CSNK1G1, Homo sapiens, UniProt Q9HCP0)
Sequence of UniProt Q9HCP0 (whole entry, looked up): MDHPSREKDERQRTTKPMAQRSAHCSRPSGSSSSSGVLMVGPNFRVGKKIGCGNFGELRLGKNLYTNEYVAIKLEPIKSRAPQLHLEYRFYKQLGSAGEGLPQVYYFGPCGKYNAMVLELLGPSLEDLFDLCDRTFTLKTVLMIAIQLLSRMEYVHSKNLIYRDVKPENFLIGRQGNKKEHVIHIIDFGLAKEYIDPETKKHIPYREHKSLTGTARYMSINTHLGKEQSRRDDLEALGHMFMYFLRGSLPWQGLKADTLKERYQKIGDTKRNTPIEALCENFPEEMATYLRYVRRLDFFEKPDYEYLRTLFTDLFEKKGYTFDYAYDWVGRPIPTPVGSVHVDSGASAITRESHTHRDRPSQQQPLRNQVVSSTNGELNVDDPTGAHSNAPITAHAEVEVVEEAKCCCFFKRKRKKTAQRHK
SMILES | remaining activity
CCN(CC)CCNC(=O)c1c(C)[nH]c(/C=C2\C(=O)Nc3ccc(Cl)cc32)c1C | 69.2%
Cc1cc2ncc(-c3ccccc3)nc2cc1C | 85.7%
O=C(NC(NC(=S)Nc1ccc(F)c([N+](=O)[O-])c1)C(Cl)(Cl)Cl)C(c1ccccc1)c1ccccc1 (stereo not shown) | 83.3%
Ic1cccc(CSc2nnc(-c3ccncc3)o2)c1 | 91.7%
O=c1cc(-c2cccc3c2Sc2ccccc2S3)oc(N2CCOCC2)c1 | 99.3%
c1ccc(-c2[nH]ncc2-c2ccnc3ccccc23)nc1 | 92.2%
O=C(Nc1cccc(Nc2nccc(Nc3cccc(C(F)(F)F)c3)n2)c1)C1CC1 | 105%
Nc1cccc(-c2cc3c(Oc4cccc(O)c4)ncnc3[nH]2)c1 | 102%
O=C1C(Cl)=C(N2C(=O)CCC2=O)C(=O)c2ccccc21 | 147%
CN([C@@H](Cc1ccc(OS(=O)(=O)c2cccc3cnccc23)cc1)C(=O)N1CCN(c2ccccc2)CC1)S(=O)(=O)c1cccc2cnccc12 | 102%
COc1cc2ncnc(Nc3ccc(O)c(Br)c3)c2cc1OC | 92.4%
Cn1nc2c3c(cccc31)C(=O)c1ccccc1-2 | 102%
COc1cc2c(cc1OC)-c1[nH]nc(Nc3cccc(F)c3)c1C2 | 77.8%
CN(C)C[C@H]1CCn2c(c(C3=C(c4cn(C)c5ccccc45)C(=O)NC3=O)c3ccccc32)C1 | 97%
CCN(CC)C(=O)c1ccc(Nc2nc(OCC3CCCCC3)c3[nH]cnc3n2)cc1 | 68.5%
Cc1cn(-c2cc(NC(=O)c3ccc(C)c(Nc4nccc(-c5cccnc5)n4)c3)cc(C(F)(F)F)c2)cn1 | 104%
N#Cc1c(NC(=O)c2cccc3ccccc23)sc2c1CCCC2 | 109%
N#C/C(=C\c1ccc(O)c(O)c1)C(=O)NCc1ccccc1 | 102%
O=C1c2ccccc2-c2n[nH]c3cccc1c23 | 85.6%
COc1cc2ncnc(Nc3cccc(Cl)c3)c2cc1OC | 99.9%
c1ccc(-c2cnc(Nc3ccc(OCCN4CCCC4)cc3)s2)cc1 | 94.7%
CCOc1nc(NC(=O)Cc2cc(OC)ccc2OC)cc(N)c1C#N | 97.7%
Cc1nc2cc3nc(-c4cccs4)cnc3cc2n1C | 92.2%

Sample 3 — effect on: cell-free assay; technique: competition with immobilised ligand; tested at: 1 µM
Compound: CCS(=O)(=O)c1cc2cc(C[C@](O)(CC(C)(C)c3ccc(F)cc3C(N)=O)C(F)(F)F)[nH]c2cn1
target | remaining binding [%]
Mitogen-activated protein kinase kinase kinase 4 (MAP3K4, Homo sapiens, UniProt Q9Y6R4) | 93
NUAK family SNF1-like kinase 1 (NUAK1, Homo sapiens, UniProt O60285) | 100
Serine/threonine-protein kinase TAO1 (TAOK1, Homo sapiens, UniProt Q7L7X3) | 88
Cyclin-dependent kinase 17 (CDK17, Homo sapiens, UniProt Q00537) | 88
STE20/SPS1-related proline-alanine-rich protein kinase (STK39, Homo sapiens, UniProt Q9UEW8) | 100
Serine/threonine-protein kinase 32B (STK32B, Homo sapiens, UniProt Q9NY57) | 94
Mitogen-activated protein kinase kinase kinase 20 (MAP3K20, Homo sapiens, UniProt Q9NYL2) | 87
Proto-oncogene tyrosine-protein kinase receptor Ret (RET, Homo sapiens, UniProt P07949, V804M) | 100
Serine/threonine-protein kinase MARK2 (MARK2, Homo sapiens, UniProt Q7KZI7) | 78
Death-associated protein kinase 3 (DAPK3, Homo sapiens, UniProt O43293) | 97
Dual specificity tyrosine-phosphorylation-regulated kinase 2 (DYRK2, Homo sapiens, UniProt Q92630) | 92
Serine/threonine-protein kinase pim-2 (PIM2, Homo sapiens, UniProt Q9P1W9) | 100
Mitogen-activated protein kinase kinase kinase kinase 2 (MAP4K2, Homo sapiens, UniProt Q12851) | 96
Phosphatidylinositol 4,5-bisphosphate 3-kinase catalytic subunit alpha isoform (PIK3CA, Homo sapiens, UniProt P42336, M1043I) | 88

Sample 4 — cell line: Huh-7; tested at: 10 µM; time: 24 h
Compound | viability [%]
COc1cc(NS(=O)(=O)c2ccc(N)cc2)ncn1 | 100
CCCCC(=O)O[C@H]1CC[C@H]2[C@@H]3CCc4cc(O)ccc4[C@H]3CC[C@]12C | 103
NC(N)=O | 101
Oc1c(Cl)cc(Cl)c(Cl)c1Cc1c(O)c(Cl)cc(Cl)c1Cl | 57.7
Cc1cc(CC(=O)O)n(C)c1C(=O)c1ccc(Cl)cc1 | 101
NS(=O)(=O)c1cc(C2(O)NC(=O)c3ccccc32)ccc1Cl (stereo not shown) | 102
N[C@@H](Cc1cc(I)c(Oc2ccc(O)c(I)c2)c(I)c1)C(=O)O | 103
CN(C/C=C/C#CC(C)(C)C)Cc1cccc2ccccc12 | 97.6
O=c1ccc2ccccc2o1 | 107
CC(C)NCC(O)COc1ccc(COCCOC(C)C)cc1 (stereo not shown) | 104
O=C1c2ccccc2C(=O)C1c1ccc(Br)cc1 | 100
CC(CN(C)C)CN1c2ccccc2Sc2ccccc21 (stereo not shown) | 99.4
CCCCCCCCCCCCCCCC[N+](C)(C)C | 77
CC(c1cc2ccccc2s1)N(O)C(N)=O (stereo not shown) | 98.2
